Assay results from different studies.
Each line is one published result; not all experiments were run side by side.
Organism: Escherichia coli

COc1c(NC(=O)c2ccc(NC(=O)c3ccc(NC(=O)[C@H](CC(N)=O)NC(=O)c4ccc(NC(=O)[C@@H](N)Cc5ccccc5)cc4)cc3)c(OC)c2O)ccc(C(=O)O)c1O — MIC (glutathione S-transferase-like clone; 16 h, 37 °C): 16 mg/L
CC(C)C[C@@H](NC(=O)[C@H](NC(=O)[C@@H](CCCCN)NC(=O)[C@@H](CCCCN)NC(=O)[C@@H](CC(C)C)NC(=O)[C@@H](Cc1c[nH]c2ccccc12)NC(=O)[C@@H](CCCCN)NC(=O)[C@@H](Cc1c[nH]c2ccccc12)NC(=O)[C@@H](CC(C)C)NC(=O)[C@@H](CCCCN)NC(=O)[C@@H](CCCCN)NC(=O)[C@H](N)C(C)C)C(C)C)C(N)=O — MIC (24 h, 37 °C, Mueller-Hinton broth, no additive): 8 µM
CC[C@H](C)[C@H](NC(=O)[C@H](Cc1ccc(O)cc1)NC(=O)[C@@H](NC(=O)[C@@H]1CCCN1C(=O)[C@H](CCCNC(=N)N)NC(=O)[C@H](CC(N)=O)NC(=O)[C@H](CC(N)=O)NC(=O)CNC(=O)CCCCCNC(=O)CCCC[C@@H]1SC[C@@H]2NC(=O)N[C@@H]21)C(C)C)C(=O)N1CCC[C@H]1C(=O)N[C@@H](CCC(N)=O)C(=O)N1CCC[C@H]1C(=O)N[C@@H](CCCNC(=N)N)C(=O)N1CCC[C@H]1C(=O)N1CCC[C@H]1C(=O)N[C@@H](Cc1c[nH]cn1)C(=O)N1CCC[C@H]1C(=O)N[C@@H](CCCNC(=N)N)C(=O)N[C@@H](CC(C)C)C(=O)O — MIC (broth microdilution; M/14072, Mueller-Hinton broth): > 160 µM
CC[C@H](C)[C@H](NC(=O)[C@H](CCCCN)NC(=O)[C@H](CCCCN)NC(=O)[C@H](CC(C)C)NC(=O)[C@H](CCCCN)NC(=O)[C@H](CCCCN)NC(=O)[C@H](Cc1ccccc1)NC(=O)[C@H](Cc1ccccc1)NC(=O)[C@H](CCCNC(=N)N)NC(=O)[C@H](CCCNC(=N)N)NC(=O)[C@@H](NC(=O)[C@H](CCCCN)NC(=O)[C@H](CCCNC(=N)N)NC(=O)[C@@H](NC(=O)[C@H](Cc1ccc(O)cc1)NC(=O)[C@H](CO)NC(=O)[C@H](CCCNC(=N)N)NC(=O)[C@@H](N)CC(C)C)[C@@H](C)CC)[C@@H](C)CC)C(=O)N[C@@H](CC(C)C)C(=O)N[C@@H](CCCCN)C(=O)N[C@@H](CCCCN)C(N)=O — MIC (BL21(DE3), Mueller-Hinton broth; 20 h): 1.37 µM
CC(C)C[C@H](NC(=O)[C@@H](NC(=O)[C@H](CCCCN)NC(=O)[C@H](CCCCN)NC(=O)[C@H](CC(C)C)NC(=O)[C@H](Cc1c[nH]c2ccccc12)NC(=O)[C@H](CCCCN)NC(=O)[C@H](CC(C)C)NC(=O)[C@H](CC(C)C)NC(=O)[C@H](CCCCN)NC(=O)[C@H](CCCCN)NC(=O)[C@@H](N)C(C)C)C(C)C)C(N)=O — MIC (24 h, 37 °C, Mueller-Hinton broth, MgCl2 1 mM): 64 µM
CC[C@H](C)[C@H](NC(=O)[C@@H](CCCNC(=N)N)NC(=O)[C@H](CCCNC(=N)N)NC(=O)[C@@H]1CCCN1C(=O)[C@@H]1CCCN1C(=O)[C@H](CCCNC(=N)N)NC(=O)[C@@H]1CCCN1C(=O)[C@H](CCCNC(=N)N)NC(=O)[C@@H]1CCCN1C(=O)[C@@H](NC(=O)[C@H](Cc1ccc(O)cc1)NC(=O)[C@@H]1CCCN1C(=O)[C@@H]1CCCN1C(=O)[C@H](CCCCN)NC(=O)[C@H](CC(=O)O)NC(=O)[C@@H](N)C(C)C)C(C)(C)C)C(=O)N[C@@H](Cc1ccc(O)cc1)C(=O)N[C@@H](CC(N)=O)C(=O)N[C@H](CCCNC(=N)N)C(N)=O — MIC (broth microdilution; ATCC 25922; 18 h, 37 °C, 25% MHB2): 16 mg/L
CC1(C)C(NC(=O)C(=NOC2(C(=O)O)CCC2)c2csc(N)n2)C(=O)N1OS(=O)(=O)O (stereo not shown) — MIC (agar dilution; CDC 1001728, NDM-1): 0.5 mg/L
CC[C@H](C)[C@H](NC(=O)[C@@H](CCCNC(=N)N)NC(=O)[C@H](CCCNC(=N)N)NC(=O)[C@@H]1CCCN1C(=O)[C@@H]1CCCN1C(=O)[C@H](CCCNC(=N)N)NC(=O)[C@@H]1CCCN1C(=O)[C@H](CCCNC(=N)N)NC(=O)[C@@H]1CCCN1C(=O)[C@H](CC(C)C)NC(=O)[C@H](Cc1ccccc1)NC(=O)[C@@H]1CCCN1C(=O)[C@@H]1CCCN1C(=O)[C@H](CCCCN)NC(=O)[C@H](CC(=O)O)NC(=O)[C@@H](N)C(C)C)C(=O)N[C@@H](Cc1ccc(O)cc1)C(=O)N[C@@H](CC(N)=O)C(=O)N[C@H](CCCNC(=N)N)C(N)=O — MIC (broth microdilution; MC4100; 18 h, 37 °C, 25% MHB2): 16 mg/L
CC[C@H](C)[C@H](NC(=O)CNC(=O)[C@H](CCC(=O)O)NC(=O)[C@H](CO)NC(=O)[C@@H](NC(=O)[C@H](CCCNC(=N)N)NC(=O)[C@H](CCCCN)NC(=O)[C@H](CCCCN)NC(=O)[C@H](C)NC(=O)[C@H](CO)NC(=O)[C@H](CC(N)=O)NC(=O)[C@H](CCC(=O)O)NC(=O)[C@H](CC(C)C)NC(=O)[C@H](CCCCN)NC(=O)[C@H](CCCCN)NC(=O)[C@H](C)NC(=O)[C@@H](NC(=O)[C@H](CCCCN)NC(=O)[C@H](CO)NC(=O)[C@H](CC(C)C)NC(=O)[C@H](Cc1c[nH]c2ccccc12)NC(=O)[C@@H](N)CO)[C@@H](C)O)[C@@H](C)CC)C(=O)N[C@@H](C)C(=O)N[C@H](C(=O)N[C@@H](C)C(=O)N[C@H](C(=O)N[C@@H](CCC(N)=O)C(=O)NCC(=O)NCC(=O)N1CCC[C@H]1C(=O)N[C@@H](CCCNC(=N)N)C(=O)O)[C@@H](C)CC)[C@@H](C)CC — MIC (25922, Mueller-Hinton broth; 18 to 24 h, 37 °C): 2 mg/L
CCCCCCCC(=O)N[C@@H](CCN)C(=O)N[C@H](C(=O)N[C@@H](CCN)C(=O)N[C@H]1CCNC(=O)[C@H]([C@@H](C)O)NC(=O)[C@H](CCN)NC(=O)[C@H](CCN)NC(=O)[C@H](CCCCCC)NC(=O)[C@@H](Cc2ccccc2)NC(=O)[C@H](CCN)NC1=O)[C@@H](C)O — MIC (broth microdilution; mcr-1, colistin-resistant): 0.5 to 1 mg/L
CC[C@H](C)[C@@H]1NC(=O)[C@@H]2CCCN2C(=O)[C@H](C)NC(=O)[C@H](CC(C)C)NC(=O)[C@@H]2CCCN2C(=O)[C@H](C)NC(=O)[C@@H]2CSSC[C@H](NC(=O)[C@H](C)NC(=O)[C@H](C)NC(=O)[C@H](Cc3ccc(O)cc3)NC(=O)[C@@H]3CCCN3C(=O)CNC(=O)[C@H](Cc3c[nH]c4ccccc34)NC1=O)C(=O)N[C@@H](CC(C)C)C(=O)N[C@@H](CO)C(=O)N[C@@H](C)C(=O)N[C@H]1CSSC[C@H](NC(=O)[C@H](C(C)C)NC(=O)[C@@H]3CCCN3C(=O)CNC(=O)CNC(=O)CNC(=O)[C@H](C)NC(=O)[C@H](C)NC(=O)[C@H](CC(C)C)NC1=O)C(=O)N[C@@H](CC(C)C)C(=O)N[C@@H](C)C(=O)N[C@@H](C(C)C)C(=O)N2 — MIC (ATCC 25922): > 128 mg/L
Cc1ccc2nc(C)c(C(=O)NCc3ccccc3)n2c1 — MIC (microbial growth, broth dilution): > 128 µM
CC[C@H](C)[C@H](NC(=O)[C@H](CC(C)C)NC(=O)[C@H](CCCNC(=N)N)NC(=O)CNC(=O)CNC(=O)[C@H](CCCCN)NC(=O)[C@H](CCCNC(=N)N)NC(=O)[C@H](CC(C)C)NC(=O)[C@H](CC(C)C)NC(=O)[C@H](CCCNC(=N)N)NC(=O)[C@@H](NC(=O)[C@H](CC(C)C)NC(=O)[C@@H](N)CO)[C@@H](C)O)C(=O)NCC(=O)N[C@@H](Cc1c[nH]c2ccccc12)C(=O)N[C@@H](CCCNC(=N)N)C(=O)N[C@@H](Cc1c[nH]c2ccccc12)C(=O)N[C@@H](CCC(=O)O)C(=O)N[C@@H](CCCCN)C(=O)N[C@H](C(=O)N[C@@H](CCCNC(=N)N)C(=O)N[C@@H](CC(N)=O)C(=O)N[C@@H](Cc1c[nH]c2ccccc12)C(=O)N[C@H](C(=O)N[C@@H](CCCNC(=N)N)C(=O)N[C@@H](CCCNC(=N)N)C(=O)N[C@H](C(=O)N[C@H](C(=O)N[C@@H](CCC(=O)O)C(=O)N[C@@H](CCCCN)C(=O)N[C@@H](CCCNC(=N)N)C(=O)N[C@@H](CCCCN)C(=O)N1CCC[C@H]1C(=O)N[C@@H](CC(N)=O)C(=O)N[C@@H](CCCCN)C(=O)O)[C@@H](C)CC)[C@@H](C)CC)[C@@H](C)CC)[C@@H](C)O — MIC (broth microdilution; K88, Mueller-Hinton broth; 37 °C): 8.79 mg/L
CC(=O)N[C@@H](CC(C)C)C(=O)N[C@H]1CSSC[C@@H](C(=O)N2CCC[C@H]2C(N)=O)NC(=O)[C@H]([C@@H](C)O)NC(=O)[C@H](C(C)C)NC(=O)[C@H]([C@@H](C)O)NC(=O)CNC(=O)[C@H](CC(C)C)NC(=O)[C@H](Cc2ccccc2)NC(=O)[C@H](Cc2ccc(O)cc2)NC(=O)[C@H](CC(C)C)NC(=O)[C@H](CCCCN)NC(=O)[C@H](Cc2ccccc2)NC(=O)[C@H](CCCNC(=N)N)NC(=O)[C@H](CCCCN)NC(=O)[C@H](CC(C)C)NC(=O)[C@H](CCCCN)NC(=O)[C@@H]2CCCN2C(=O)[C@H](CCCCN)NC(=O)[C@H](C(C)C)NC(=O)[C@H](CC(N)=O)NC(=O)[C@H](Cc2ccc(O)cc2)NC(=O)[C@H]([C@@H](C)O)NC1=O — MIC (broth dilution; laboratory strain; 24 h): 1.25 to 2.5 µM
OB(O)c1ccc(OCc2ccccc2)nc1F — MIC (bacterial growth; CTX-M-14 ESBL clinical isolate; without cefotaxime): > 2050 mg/L
CC[C@H](C)[C@H](NC(=O)[C@@H](CCCNC(=N)N)NC(=O)[C@H](CCCNC(=N)N)NC(=O)[C@@H]1CCCN1C(=O)[C@@H]1CCCN1C(=O)[C@H](CCCNC(=N)N)NC(=O)[C@@H]1CCCN1C(=O)[C@H](CCCNC(=N)N)NC(=O)[C@@H]1CCCN1C(=O)[C@H](CC(C)C)NC(=O)[C@H](Cc1ccc(O)cc1)NC(=O)[C@@H]1CCCN1C(=O)[C@@H]1CCCN1C(=O)[C@H](CCCCN)NC(=O)[C@H](Cc1c[nH]c2ccccc12)NC(=O)[C@@H](N)C(C)C)C(=O)N[C@@H](Cc1ccc(O)cc1)C(=O)N[C@@H](CC(N)=O)C(=O)N[C@H](CCCNC(=N)N)C(N)=O — MIC (broth microdilution; ATCC 25922; 18 h, 37 °C, 25% MHB2): 8 mg/L
CC(C)C[C@H](NC(=O)[C@H](CCCCN)NC(=O)[C@H](CC(C)C)NC(=O)[C@H](CCCCN)NC(=O)C1CCC=CCCC(NC(=O)[C@H](CCCCN)NC(=O)[C@H](CC(C)C)NC(=O)[C@H](CCCCN)NC(=O)[C@@H](N)CC(C)C)C(=O)N[C@@H](CCCCN)C(=O)N2CCC[C@@H]2C(=O)NCC(=O)N[C@@H](CCCCN)C(=O)N1)C(N)=O (stereo partly shown) — MIC (broth microdilution; ATCC 25922, Mueller-Hinton broth; 18 h, 37 °C): 16 µM
CC[C@H](C)[C@H](NC(=O)[C@@H](CCCNC(=N)N)NC(=O)[C@H](CCCNC(=N)N)NC(=O)[C@H](CC(N)=O)NC(=O)[C@H](Cc1c[nH]c2ccccc12)NC(=O)[C@H](CCCNC(=N)N)NC(=O)[C@@H]1CCCN1C(=O)[C@H](CCCNC(=N)N)NC(=O)[C@@H]1CCCN1C(=O)[C@H](CC(C)C)NC(=O)[C@H](Cc1ccc(O)cc1)NC(=O)[C@@H]1CCCN1C(=O)[C@@H]1CCCN1C(=O)[C@H](CCCCN)NC(=O)[C@H](CC(=O)O)NC(=O)[C@@H](N)C(C)C)C(=O)N[C@@H](Cc1ccc(O)cc1)C(=O)N[C@@H](CC(N)=O)C(=O)N[C@H](CCCNC(=N)N)C(N)=O — MIC (broth microdilution; MC4100; 18 h, 37 °C, 25% MHB2): 4 mg/L
CC[C@H](C)[C@H](NC(=O)[C@H](CCCNC(=N)N)NC(=O)[C@@H](NC(=O)[C@@H](NC(=O)[C@H](CCCNC(=N)N)NC(=O)[C@H](CCCCN)NC(=O)[C@H](Cc1ccccc1)NC(=O)[C@H](CCCNC(=N)N)NC(=O)[C@H](CCCCN)NC(=O)[C@@H](NC(=O)[C@@H](N)CCCCN)[C@@H](C)CC)[C@@H](C)CC)C(C)C)C(=O)N[C@@H](CCCCN)C(=O)N[C@@H](Cc1ccccc1)C(=O)N[C@@H](CC(C)C)C(=O)N[C@@H](CCCNC(=N)N)C(=O)N[C@H](C(=O)N[C@H](C(=O)N[C@@H](CCCNC(=N)N)C(=O)N[C@@H](CCCNC(=N)N)C(N)=O)C(C)C)C(C)C — MIC (broth microdilution; 25922): 2.5 mg/L

For quick reference, copied from above:
CC[C@H](C)[C@H](NC(=O)[C@@H](CCCNC(=N)N)NC(=O)[C@H](CCCNC(=N)N)NC(=O)[C@@H]1CCCN1C(=O)[C@@H]1CCCN1C(=O)[C@H](CCCNC(=N)N)NC(=O)[C@@H]1CCCN1C(=O)[C@H](CCCNC(=N)N)NC(=O)[C@@H]1CCCN1C(=O)[C@H](CC(C)C)NC(=O)[C@H](Cc1ccccc1)NC(=O)[C@@H]1CCCN1C(=O)[C@@H]1CCCN1C(=O)[C@H](CCCCN)NC(=O)[C@H](CC(=O)O)NC(=O)[C@@H](N)C(C)C)C(=O)N[C@@H](Cc1ccc(O)cc1)C(=O)N[C@@H](CC(N)=O)C(=O)N[C@H](CCCNC(=N)N)C(N)=O — MIC (broth microdilution; MC4100; 18 h, 37 °C, 25% MHB2): 16 mg/L
